Assay results gathered from unrelated publications.
Each numbered part is a random draw from the data of one study; scales do not carry over between parts. Changes are numbered by the printed parent chain.

Series 1
Target: CCNE2, cyclin fold, Cln2 fusion (human)
Method: yeast growth competition, sequencing
Medium: yeast
Setting: strong parent motif
Reference: not given
Direction: higher = stronger binding
Endpoint: normalised enrichment score
Starting sequence: CDKN1B docking peptide (human); PSACRNLFGPVDH
PSACRNLFGPVDA [H13A]: 1.42
PSACRNLFGPFDH [V11F]: 1.82
PSACRNTFGPVDH [L7T]: -0.308
PSACRMLFGPVDH [N6M]: 1.81
PSPCRNLFGPVDH [A3P]: 0.833
PSACRNLAGPVDH [F8A]: -0.233
PSACRNLFGPRDH [V11R]: 0.203
PSRCRNLFGPVDH [A3R]: 0.964
PSACRNLFGPKDH [V11K]: 1.03
PSACRNLCGPVDH [F8C]: -0.473
PSACRNAFGPVDH [L7A]: 0.104
PSWCRNLFGPVDH [A3W]: 2.51
PSACRNLFMPVDH [G9M]: 0.616
PSACRQLFGPVDH [N6Q]: 2.41
QSACRNLFGPVDH [P1Q]: 1.94

Series 2
Target: ABI1, truncated, D143A, DHFR fusion (Arabidopsis thaliana)
Method: DHFR PCA, deep sequencing
Medium: yeast
Setting: methotrexate growth selection, single substitutions
Together with: (+)-ABA 0 µM
Reference: wild-type fitted maximum
Direction: higher = stronger binding
Endpoint: relative binding score
Starting sequence: PYL1, truncated, DHFR fusion (Arabidopsis thaliana); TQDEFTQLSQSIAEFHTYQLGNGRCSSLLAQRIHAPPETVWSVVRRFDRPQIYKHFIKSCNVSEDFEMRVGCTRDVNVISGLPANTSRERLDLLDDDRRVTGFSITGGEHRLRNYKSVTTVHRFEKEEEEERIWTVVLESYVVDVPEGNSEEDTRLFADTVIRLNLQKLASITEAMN; partner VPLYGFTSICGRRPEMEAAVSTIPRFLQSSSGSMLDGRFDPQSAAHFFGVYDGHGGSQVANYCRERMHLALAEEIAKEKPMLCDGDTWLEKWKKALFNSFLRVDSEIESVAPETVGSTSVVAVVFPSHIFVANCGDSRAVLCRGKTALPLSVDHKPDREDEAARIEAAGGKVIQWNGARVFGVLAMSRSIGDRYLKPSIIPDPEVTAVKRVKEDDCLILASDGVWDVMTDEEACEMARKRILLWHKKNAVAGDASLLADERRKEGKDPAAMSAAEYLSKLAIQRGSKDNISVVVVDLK
D96Q: -7.87%
S59L: -0.471%
T106I: 66.4%
D65A: 6.17%
R123M: 4.36%
G148L: -5.15%
V62D: -6.89%
L94T: -5.7%
K126C: 50.3%
L29G: -0.124%
R24S: 5.92%

Series 3
Target: Interferon regulatory factor 3, full length, phosphomimetic (IRF3, Homo sapiens, UniProt Q14653, residues 1-427, S386D/S396D/S398D/S402D/T404D/S405D)
Chain of UniProt Q14653 (whole entry, unmodified, looked up): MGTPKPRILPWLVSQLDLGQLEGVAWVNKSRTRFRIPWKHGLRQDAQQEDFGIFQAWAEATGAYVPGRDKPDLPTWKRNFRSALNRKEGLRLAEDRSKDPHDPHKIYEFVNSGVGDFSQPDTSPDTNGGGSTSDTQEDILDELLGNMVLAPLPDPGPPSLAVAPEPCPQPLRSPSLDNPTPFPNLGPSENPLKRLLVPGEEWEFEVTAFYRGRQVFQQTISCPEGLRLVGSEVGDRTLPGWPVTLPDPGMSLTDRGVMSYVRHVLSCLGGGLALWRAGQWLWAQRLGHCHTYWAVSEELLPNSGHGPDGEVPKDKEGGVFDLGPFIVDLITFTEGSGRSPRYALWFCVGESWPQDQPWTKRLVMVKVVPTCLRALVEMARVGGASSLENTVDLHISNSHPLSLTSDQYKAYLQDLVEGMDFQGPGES
Method: protein-binding microarray
Molecule type: double-stranded DNA, one strand shown
Medium: in vitro
Concentration: 2540 nM top
Setting: 60-bp whole probe
Together with: salmon DNA 0.4 mg/ml
Reference: random background probes
Direction: higher = stronger binding
Endpoint: fitted relative affinity
Constant ends, left off below: GCCTAGCAC … GTCTTGATTCGCTTGACGCTGCTG
GACGGAGTGGACACTGGGGACGTGCTA: -0.777 z-score
TATAGAGTAGTTTTTCAACCAGTGCTA: 0.156 z-score
TTAGGTTTCAGTTCCGATTAGTGCTAG: 6.42 z-score
TTAGGTTTCGACTTGCGGTTAGTGCTA: 2.87 z-score
TCAACTCTGAACCTTCAGACTGTGCTA: -0.0166 z-score
GACGATATCGGGACTGTAGACGTGCTA: 0.242 z-score
TTAGGTTTCCTTTTCATTTAGTGCTAG: 11.7 z-score
GACGATTTTAGTTCCGAGACGTGCTAG: 1.54 z-score
TCATCTCTGCTCTTTTCAACTGTGCTA: 1.06 z-score
GACTGTTTCGACTATCGGGACGTGCTA: 2.43 z-score
GACGGTATTGGGTTTCGGGACGTGCTA: 1.48 z-score
TAGGGACTCAGGTCTCCCTTGGTGCTA: -0.54 z-score

Series 4
Target: Sal-like protein 4, full length isoform B (SALL4, Homo sapiens, UniProt Q9UJQ4-2, residues 1-616)
Method: universal PBM
Molecule type: double-stranded DNA, one strand shown
Medium: in vitro
Concentration: not given
Setting: 8-mer, flanks averaged, mean of replicates
Direction: higher = stronger binding
Endpoint: E-score
AACTATGT: 0.136
CGGCGCTC: -0.302
GGATACAA: 0.0931
ACAATACG: 0.141
CCGTTCTC: -0.0662
AAAGATCT: 0.00791
AGCCAAGC: -0.242
ACAGCCGC: -0.347
GCCCATGA: -0.279
GGCAGCCC: -0.408
AGCTGGAG: -0.144
CATTCGCC: -0.168
ACGAGCCA: -0.122
GGGATCAC: -0.246
TTCCACAA: 0.135
TAAACTTA: 0.245
CTCAACTA: -0.0194
GGGCCAAC: -0.181
AGTGCATA: 0.147
CCTATTAC: 0.205
ATCGAACA: 0.0639

Series 5
Target: RING finger protein unkempt homolog, zinc fingers 1-6, GST-SBP tag (UNK, Homo sapiens, UniProt Q9C0B0, residues 30-357)
Method: RNA Bind-n-Seq
Molecule type: RNA
Medium: in vitro
Concentration: not given
Setting: RNA with constant flanks, human-mouse chimeric sites, ends assumed
Reference: input RNA pool
Direction: higher = stronger binding
Endpoint: bound/input enrichment
Residues (chain): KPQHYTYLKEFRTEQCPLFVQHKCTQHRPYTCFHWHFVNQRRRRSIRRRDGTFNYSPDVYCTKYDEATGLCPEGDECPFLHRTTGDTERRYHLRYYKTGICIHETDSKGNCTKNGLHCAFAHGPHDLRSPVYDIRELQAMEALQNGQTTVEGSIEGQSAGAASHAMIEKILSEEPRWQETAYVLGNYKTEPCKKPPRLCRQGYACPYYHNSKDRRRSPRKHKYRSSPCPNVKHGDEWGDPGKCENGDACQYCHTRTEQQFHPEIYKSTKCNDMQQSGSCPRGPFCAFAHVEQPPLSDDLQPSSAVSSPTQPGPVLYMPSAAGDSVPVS
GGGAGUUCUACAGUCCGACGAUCCGCCUGGAUGAGGCGGGUGUCACAGAUGAAGUGCUAGAUUCUGCCAUGCAAGCCUUCCUUCUGGAGGUCAUUGUUAAACAUGGGGAGCCGGCACCUUAUUUAUGUAACAAAGAUCCGUUUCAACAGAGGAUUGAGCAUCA: 0.0956 ratio
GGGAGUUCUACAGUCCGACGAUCGUUCGGCUUUGGGAUCAUGCCACAAUGACAGAAGUGAAAUCUCUGAAUUUUAAUAUGUCUGUUAGCAGCAUGGAGUAUAUUCCUGAAGGAGAGAUUUUGGUUAUUACUUAUGGACGAUCUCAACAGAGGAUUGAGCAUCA: 0.34 ratio
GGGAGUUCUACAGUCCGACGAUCUGUAGUUUCUUGAUUUAUCAUUUUUCUCUUUUCUUUCUUUCCUUUAGGAAAAGCCUAAAGAUUAGGUUGUAAGAAAAACAGAAGCCAUGUUUCGAAGGAAGACCUGUAUUACAGGUAGUCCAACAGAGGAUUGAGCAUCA: 0.187 ratio
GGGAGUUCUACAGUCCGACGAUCGAUAAGAAAAGCUUGUUGGAGACCCGCUUGCAUGUCACUGGUAGAGACCUGAGGUGUAAAAUAGCUGAAACUUUCGGAUUUCAAGAAAAUUACAUCAAAAUUGUCAUAAAUAAGAAACAGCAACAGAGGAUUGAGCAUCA: 0.208 ratio
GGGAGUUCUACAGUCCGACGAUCAUCAAGUACUUUGGGGACAUCAUUAGUGUGGGACAGAGACUGUUGCAAGGAGCUCGGAUCUUAGGGAUUCCAGUUAUUGUAACAGAACAAUACCCCAAAGGACUUGGCAGCACCGUUCAACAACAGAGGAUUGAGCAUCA: 0.112 ratio

Series 6
Target: Histone acetyltransferase KAT6A, winged helix 2, GST fusion (KAT6A, Homo sapiens, UniProt Q92794, residues 85-181)
Method: protein binding microarray
Molecule type: double-stranded DNA, one strand shown
Medium: in vitro
Concentration: not given
Setting: 8-mer, flanks averaged, mean of 2 arrays, mostly near background
Reference: not given
Direction: higher = stronger binding
Endpoint: E-score
Residues (chain): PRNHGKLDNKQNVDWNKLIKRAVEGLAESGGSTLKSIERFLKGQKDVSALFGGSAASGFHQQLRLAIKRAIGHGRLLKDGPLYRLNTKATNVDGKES
ACTGTCGC: 0.0534
CATTCTAC: -0.118
CAGCATGA: -0.0978
GGACTTTA: -0.0505
CAACCGCC: 0.0175
CCGCCTCC: 0.104
TCCGTGCA: 0.0425
GATGTTCC: 0.0198
AAGATTGC: 0.125
GCCATACA: -0.14
CGGAAACA: -0.101
CGTGCGTC: 0.203
CCTCCGTC: 0.0134
CGGTGGAG: -0.0148
CATGCGCA: 0.0675
AGGGTATA: -0.00645
CGGTCTAA: -0.0691
GCACCCGA: 0.213
CGCTAACA: -0.124
ACTGAGTC: -0.0351
CGCACCTC: 0.00739
AGCGCGGA: 0.152
GGGCGAGA: 0.0469
ACGAAAAC: 0.106
ATCTCCGG: 0.0611

For quick reference, copied from above (series 6):
CCTCCGTC: 0.0134
CGGTGGAG: -0.0148
CATGCGCA: 0.0675
AGGGTATA: -0.00645
CGGTCTAA: -0.0691
GCACCCGA: 0.213
CGCTAACA: -0.124
ACTGAGTC: -0.0351
CGCACCTC: 0.00739
